Measured values collected from several papers.
Numbers after ± are the reported error.

| Compound | test | system | conditions | scale | measurement | value |
| --- | --- | --- | --- | --- | --- | --- |
| Cc1ccccc1/N=N/c1ccc(/N=N/c2c(O)ccc3ccccc23)c(C)c1 | – | Sprague-Dawley rats both sexes, whole blood | oral, 50 mg/kg | – | absorption rate constant | 0.44 h⁻¹ |
| N=C(N)NCCC[C@H](NC(=O)[C@H](Cc1c[nH]c2ccccc12)NC(=O)[C@H](CCC(N)=O)NC(=O)[C@H](Cc1c[nH]c2ccccc12)NC(=O)[C@@H](N)CCCNC(=N)N)C(=O)N[C@@H](Cc1c[nH]c2ccccc12)C(=O)N[C@@H](CCC(N)=O)C(=O)N[C@@H](Cc1c[nH]c2ccccc12)C(N)=O | – | erythrocytes | – | – | haemolytic concentration | > 12.5 µg/mL |
| C[C@@H](C(=O)O)N(CC(=O)N(CCS)CC(N)=O)C(=O)CN(C(=O)CN(C(=O)CN(C(=O)CN(C(=O)CN(C(=O)CN(C(=O)CN(C(=O)CN(C(=O)CN(C(=O)CN(C(=O)CN(C(=O)CN(CCS)C(=O)CN1CCCNCC1)[C@@H](C)c1ccccc1)[C@@H](C)C(=O)O)[C@@H](C)C(=O)O)[C@@H](C)c1ccccc1)[C@@H](C)C(=O)O)[C@@H](C)C(=O)O)[C@@H](C)c1ccccc1)[C@@H](C)C(=O)O)[C@@H](C)C(=O)O)[C@@H](C)c1ccccc1)[C@@H](C)C(=O)O | – | distilled water | – | – | water solubility | ≥ 15 mM |
| C=C(c1cc(F)c(C(=O)O)c(F)c1)c1cc2c(cc1C)C(C)(C)CCC2(C)C | – | Sprague-Dawley rat, male, plasma | oral, 100 mg/kg, 2 h, sesame oil vehicle | – | HDL level | 67 ± 3.5 mg/dL |
| CN(C)c1ccc2c(-c3cc(C(=O)N4CCN(CCCOc5ccc6nccc(C(=O)NCC(=O)N7CC(F)(F)C[C@H]7C#N)c6c5)CC4)ccc3C(=O)[O-])c3ccc(=[N+](C)C)cc-3oc2c1 | intravital imaging | mouse, blood | intravenous, 100 µg | – | half-life slow phase | 0.168 h |
| Cn1c(=O)oc2ccc(-c3ccc(CC(C#N)NC(=O)C4CNCCCO4)c(F)c3)cc21 (centres unmarked) | – | human | oral, 20 mg once daily, treatment-related AE, multiple ascending dose | – | bilirubin increased incidence | 0% |
| CC/C=C\C/C=C\C/C=C\C/C=C\C/C=C\CCCCOC(CC)C(=O)O (centres unmarked) | radioactivity, 14C-labelled | Wistar rat, male, kidney cortex | oral, 100 mg/kg, 3 days | – | tissue concentration | 1.5 µg equivalents/g tissue |
| CC[C@H](C)[C@H](NC(=O)[C@H](N)Cc1ccc(O)cc1)C(=O)N[C@H]1CSSC[C@@H](C(=O)N(C)[C@H](C(N)=O)[C@@H](C)CC)NC(=O)[C@H](CCCNC(=N)N)NC(=O)[C@H](Cc2c[nH]cn2)NC(=O)[C@H](C)NC(=O)CN(C)C(=O)[C@H](Cc2c[nH]c3ccccc23)NC(=O)[C@H](CC(=O)O)NC(=O)[C@H](CCC(N)=O)NC(=O)[C@H](Cc2cn(C)c3ccccc23)NC(=O)[C@H](C(C)C)NC1=O | UPLC-ESI-MS | cynomolgus monkey plasma | 0.36 µg/mL, 24 h, 4 °C, autosampler after SPE | – | recovery | 98.7 ± 0.1% |
| CC(C)(Sc1ccncc1-c1ccc(C#N)c2ccccc12)C(=O)OC1OC(C(=O)O)C(O)C(O)C1O (centres unmarked) | – | plasma | oral, 15 mg, severe renal impairment, fasted | – | terminal half-life | 21.2 h |
| CC(C)C[C@@H](NC(=O)[C@H](NC(=O)[C@H]1CCCN1)[C@H](C)O)C(=O)N[C@H](Cc1c[nH]cn1)C(=O)N[C@@H](C(=O)N[C@H](Cc1c[nH]cn1)C(=O)N[C@H](CC(N)=O)C(=O)N[C@H](CCCNC(=N)N)C(=O)N[C@H](CCCNC(=N)N)C(=O)N[C@H](CCCNC(=N)N)C(=O)N[C@H](CCCNC(=N)N)C(=O)N[C@H](CCCNC(=N)N)C(N)=O)[C@H](C)O | – | beagle dog, plasma | oral, 50 mg/kg, single dose | – | AUC(0-t) | 19800 ng·h/mL |
| C#CCOc1ccc(/C=C2\SC(=O)N(CC(=O)NCc3ccccc3)C2=O)cc1 | inverse Kirkwood-Buff integrals | binary solvent mixture | 298.15 K, mole fraction x1 0.30 | – | Kirkwood-Buff integral G2,3 | -393 cm³/mol |
| COc1ccc(NC(=O)[C@H](CCCCN)NC(=O)c2cc(NC(=O)[C@H](CCCCN)NC(=O)c3cc(NC(=O)[C@H](CCCCN)NC(=O)c4cc(NC(=O)[C@@H](N)CCCCN)ccc4OC)ccc3OC)ccc2OC)cc1C(N)=O | ITC heats of dilution | TBS | pH 7.4, 25 °C, hexamer to monomer | – | enthalpy of dissociation | 14.1 kcal/mol |
| CCC(CC)CNC(=N)NC(=N)NCCCCCCNC(=N)NC(=N)NCC(CC)CC | metabolic stability | mouse, liver microsomes | 2 µM | – | scaled CLint | 94.3 mL/min/kg |
| CCCC[C@@H]1NC(=O)[C@@H](NC(=O)[C@H](CCC(=O)O)NC(=O)CNC(=O)CN2CCN(CC(=O)O)CCN(CC(=O)O)CCN(CC(=O)O)CC2)CCCCNC(=O)C[C@@H](C(N)=O)NC(=O)[C@H](C(C)C)NC(=O)[C@@H]2CCCN2C(=O)[C@H](CCCNC(=N)N)NC(=O)CNC(=O)[C@H](Cc2c[nH]c3ccccc23)NC(=O)[C@H](CCCNC(=N)N)NC(=O)[C@@H](Cc2ccccc2)NC(=O)[C@H](Cc2c[nH]cn2)NC(=O)[C@H](CCC(=O)O)NC1=O [gallium-67 labelled] | – | C57 mice, B16/F10 lung metastases, muscle | intravenous, 0.037 MBq/mouse, 2 h | – | tissue uptake | 0.07 ± 0.01 %ID/g |
| CC(=O)N[C@H](CC(=O)O)C(=O)N[C@H](Cc1c[nH]c2ccccc12)C(=O)N[C@H](Cc1ccccc1)C(=O)N[C@H](CCCCN)C(=O)N[C@H](C)C(=O)N[C@H](Cc1ccccc1)C(=O)N[C@H](Cc1ccc(O)cc1)C(=O)N[C@H](CC(=O)O)C(=O)N[C@H](CCCCN)C(=O)N[C@@H](C(=O)N[C@H](C)C(=O)N[C@H](CCC(=O)O)C(=O)N[C@H](CCCCN)C(=O)N[C@H](Cc1ccccc1)C(=O)N[C@H](CCCCN)C(=O)N[C@H](CCC(=O)O)C(=O)N[C@H](C)C(=O)N[C@H](Cc1ccccc1)C(N)=O)C(C)C | – | statin-treated high-risk CHD patients, both sexes, plasma | oral, 100 mg daily, day 13, 0-8 h, mean, undetectable set to 0 | – | Cmax | 2.27 ng/mL |
| NCCCNc1nc2cc(Cl)ccc2n1Cc1ccccc1 | metabolic stability | human, liver microsomes | 0.1 µM, 30 min, pH 7.4 | – | compound remaining | 97% |
| Clc1cccc(-c2nnc(/N=C/C=C/c3ccccc3)nc2/N=C/C=C/c2ccccc2)c1Cl | rotarod test | white albino mice, both sexes | intraperitoneal, 50 mg/kg | – | time on rotating rod | 55.6 ± 12.3 s |
| Cc1ccc(OCC(=O)N(Cc2cccs2)c2ccn[nH]2)cc1 | – | male beagle dog, plasma | oral, 30 mg/kg, single dose | – | AUC(0-t) | 223 ng·h/mL |
| CCC/C(=C\C1=C(OC)C(=O)c2ccccc2C1=O)C(=O)NOC | – | human liver S9 | 1 µM, pH 7.4, metabolism | – | CLint scaled | 1 mL/min/kg |
| COc1ccc(/C=C/C2=[N+]3C(=C(CO)c4c(C)cc(/C=C/c5ccc(OC)cc5)n4[B-]3(C)C)C(C)=C2)cc1 | – | acetonitrile | room temperature | – | luminescence quantum yield | 3.9 ± 0.6% |
| N=C(N)NCCC[C@@H]1NC(=O)[C@H](Cc2c[nH]c3ccccc23)NC(=O)[C@@H](CC2CCCCC2)NC(=O)[C@@H]2CCCN2C(=O)[C@@H](NC(=O)CCc2ccccc2)CCCNC1=O | two-compartment model | C57BL/6J mice, brain | intravenous, 1 mg/kg | – | alpha rate constant | 27.1 h⁻¹ |
| NC[C@@H](C(=O)Nc1ccc(-c2cn[nH]c2)cc1)c1ccccc1 | OECD 405, refers to: Cornea | New Zealand White rabbit | topical, 0.1 %, 72 h, day 4 | direction not given | ocular irritation score | 0 |
| O=C([O-])c1cccc(CN(CCN(Cc2cn(Cc3ccccc3)nn2)Cc2cccc(C(=O)[O-])n2)Cc2cn(Cc3ccccc3)nn2)n1.[177Lu+3] | – | human serum | 24 h, 37 °C, added: 177Lu | – | radiometal bound to chelator | 46% |
| CC(=O)N1CCC(NC(=O)Nc2ccc(OC(F)(F)F)cc2)CC1 | – | male C57BL/6J sEH knockout mice, whole blood | subcutaneous, 1 mg/kg, added: TPPU 0.3 mg/kg | – | time to full blood elimination | ≤ 144 h |
| CC(C)C[C@H](NC(=O)[C@H](CC(C)C)NC(=O)[C@@H](NC(=O)[C@H](Cc1ccccc1)NC(=O)[C@@H](Cc1c[nH]c2ccccc12)NC(=O)[C@@H](N)CCCCN)[C@@H](c1ccccc1)c1c[nH]c2ccccc12)C(N)=O | RP-HPLC Kinetex Biphenyl | – | acetonitrile/water TFA gradient | – | HPLC retention | 43.1 %B |
| COc1ccc(S(=O)(=O)N/N=C/c2ccc(C#N)cc2)cc1OC | – | male Wistar rat liver microsomes | 10 µM, 3 h, pH 7.4, added: without NADPH | – | compound consumed | ~15% |

Repeated from above:
| Compound | test | system | conditions | scale | measurement | value |
| --- | --- | --- | --- | --- | --- | --- |
| CCCC[C@@H]1NC(=O)[C@@H](NC(=O)[C@H](CCC(=O)O)NC(=O)CNC(=O)CN2CCN(CC(=O)O)CCN(CC(=O)O)CCN(CC(=O)O)CC2)CCCCNC(=O)C[C@@H](C(N)=O)NC(=O)[C@H](C(C)C)NC(=O)[C@@H]2CCCN2C(=O)[C@H](CCCNC(=N)N)NC(=O)CNC(=O)[C@H](Cc2c[nH]c3ccccc23)NC(=O)[C@H](CCCNC(=N)N)NC(=O)[C@@H](Cc2ccccc2)NC(=O)[C@H](Cc2c[nH]cn2)NC(=O)[C@H](CCC(=O)O)NC1=O [gallium-67 labelled] | – | C57 mice, B16/F10 lung metastases, muscle | intravenous, 0.037 MBq/mouse, 2 h | – | tissue uptake | 0.07 ± 0.01 %ID/g |
| COc1ccc(S(=O)(=O)N/N=C/c2ccc(C#N)cc2)cc1OC | – | male Wistar rat liver microsomes | 10 µM, 3 h, pH 7.4, added: without NADPH | – | compound consumed | ~15% |
